Results collected from several papers.
Parts stem from different laboratories: compare values within a part only.

Set 1 — technique: protein-binding microarray; form: double-stranded DNA, one strand shown; matrix: in vitro; concentration: not given; reading: higher = stronger binding
Target: Transcriptional repressor CTCF (CTCF, Homo sapiens, UniProt P49711, residues 1-727, full length assumed)
Notes: k-mer, scored over probes, only values ≥0.25
Target sequence (chain): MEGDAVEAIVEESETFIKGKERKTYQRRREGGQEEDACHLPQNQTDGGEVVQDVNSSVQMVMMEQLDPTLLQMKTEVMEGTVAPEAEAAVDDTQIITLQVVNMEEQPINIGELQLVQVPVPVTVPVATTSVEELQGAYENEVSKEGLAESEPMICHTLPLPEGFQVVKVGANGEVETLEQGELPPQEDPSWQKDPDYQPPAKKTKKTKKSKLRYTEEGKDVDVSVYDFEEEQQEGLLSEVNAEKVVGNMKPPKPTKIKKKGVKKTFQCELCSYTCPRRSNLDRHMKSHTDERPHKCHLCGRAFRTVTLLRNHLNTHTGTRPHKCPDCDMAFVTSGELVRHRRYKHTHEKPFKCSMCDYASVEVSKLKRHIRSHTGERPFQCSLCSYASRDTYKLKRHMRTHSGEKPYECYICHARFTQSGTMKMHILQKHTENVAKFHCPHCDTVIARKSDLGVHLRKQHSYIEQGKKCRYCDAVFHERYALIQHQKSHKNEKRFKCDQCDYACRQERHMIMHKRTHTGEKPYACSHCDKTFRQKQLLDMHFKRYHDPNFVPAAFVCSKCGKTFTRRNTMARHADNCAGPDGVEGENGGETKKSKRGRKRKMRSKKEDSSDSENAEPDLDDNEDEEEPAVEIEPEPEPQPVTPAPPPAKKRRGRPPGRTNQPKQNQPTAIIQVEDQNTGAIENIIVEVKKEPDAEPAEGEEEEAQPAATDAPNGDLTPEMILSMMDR
`CGCGCTTA` gave an E-score of 0.276.
For `CGCGCAAG`, the E-score was 0.275.
For `AATATTAC`, the E-score was 0.322.
For `CATTTATC`, the E-score was 0.28.
The E-score of `ATGAAATC` is reported as 0.256.
The E-score of `AAGATATA` is reported as 0.263.
With `GATTGCGC` the E-score was 0.367.
With `GTGTATTA` the E-score was 0.327.
The E-score of `AATGGTAA` is reported as 0.301.
For `TACACAAA`, the E-score was 0.32.
`CTATTATA` gave an E-score of 0.261.
The E-score of `ATACAATC` is reported as 0.307.
The E-score of `TAGGAAAA` is reported as 0.271.
`CAGTATAA` has an E-score of 0.298.
The E-score of `ATAAGCGC` is reported as 0.293.
`TAATATGA` gave an E-score of 0.3.
With `AGGAAATA` the E-score was 0.308.
The E-score of `GCCCCGCC` is reported as 0.27.
`CTACAAAA` gave an E-score of 0.283.
The E-score of `TACGAGTA` is reported as 0.297.
The E-score of `ATGCAATC` is reported as 0.269.
The E-score of `AATATAGA` is reported as 0.279.
`AACGGATA` has an E-score of 0.255.
`CAAAATGA` has an E-score of 0.295.
`GGTTTCTA` has an E-score of 0.277.

Set 2 — technique: protein binding microarray; form: double-stranded DNA, one strand shown; matrix: in vitro; concentration: not given; baseline: not given; reading: higher = stronger binding
Target: Histone acetyltransferase KAT6A, winged helix 2, GST fusion (KAT6A, Homo sapiens, UniProt Q92794, residues 85-181)
Notes: 8-mer, flanks averaged, mean of 2 arrays, mostly near background
Residues (chain): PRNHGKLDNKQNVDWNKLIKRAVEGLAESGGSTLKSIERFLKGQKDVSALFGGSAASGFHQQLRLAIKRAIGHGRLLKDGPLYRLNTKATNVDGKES
`CCAACTGA` gave an E-score of -0.0824.
`AGCCCGGG` has an E-score of 0.13.
The E-score of `CGATGCCA` is reported as 0.0426.
The E-score of `ATAAGGTC` is reported as -0.0411.
The E-score of `ACCATAAT` is reported as -0.084.
`GAATGGGA` gave an E-score of -0.051.
The E-score of `CATGCTTC` is reported as 0.0716.
`ATCAGAAA` gave an E-score of 0.00482.
`GGAGTCAA` has an E-score of -0.0281.
`ATAGTCAT` gave an E-score of -0.0875.
`GTACGGTA` has an E-score of -0.183.
`CTACGGGC` has an E-score of -0.13.
For `CACTAACA`, the E-score was -0.136.
`AGTTTAGG` has an E-score of 0.00622.
`GTGTGGAA` gave an E-score of 0.0267.
For `ATATCAAA`, the E-score was 0.0231.
The E-score of `ACAACGGG` is reported as -0.0582.
For `ATGAAGAC`, the E-score was 0.226.
The E-score of `CTGCCTTC` is reported as 0.0155.
With `ACTAGTGG` the E-score was -0.134.
The E-score of `ACTGCGTA` is reported as 0.0538.
The E-score of `GTAAGACA` is reported as 0.000445.
`GCCGGCGC` has an E-score of 0.271.
The E-score of `GGCGCGCA` is reported as 0.131.
For `CATCACCC`, the E-score was -0.112.

Set 3 — technique: competition protein-binding microarray; form: double-stranded DNA, one strand shown; matrix: in vitro; concentration: 2 µM; together with: Pho4 competitor, 0.05 µM; reading: higher = stronger binding
Target: Centromere-binding protein 1, full length, His-tagged (CBF1, Saccharomyces cerevisiae, UniProt P17106, residues 1-351)
UniProt P17106, sequence (whole entry, looked up): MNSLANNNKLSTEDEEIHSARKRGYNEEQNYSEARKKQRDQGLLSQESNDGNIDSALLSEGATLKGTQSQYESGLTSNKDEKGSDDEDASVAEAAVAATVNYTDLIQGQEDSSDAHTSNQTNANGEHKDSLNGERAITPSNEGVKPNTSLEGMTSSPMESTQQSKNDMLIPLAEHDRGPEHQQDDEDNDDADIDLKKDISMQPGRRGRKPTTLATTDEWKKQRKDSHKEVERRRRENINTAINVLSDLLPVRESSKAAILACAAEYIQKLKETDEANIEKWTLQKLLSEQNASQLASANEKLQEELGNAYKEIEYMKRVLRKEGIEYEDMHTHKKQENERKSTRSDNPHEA
Notes: whole 60-bp probe, lowest competitor level
`CAGCGAACCAAAGGCACCGTGAGTAGAGGTATGAGAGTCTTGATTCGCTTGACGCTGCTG` gave a fluorescence intensity of 55.5 a.u.
With `GCATTTTTCGGGGCGCCCGTGCAAAAACTAACTCCGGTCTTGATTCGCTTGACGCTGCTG` the fluorescence intensity was 80.3 a.u.
For `CGTTCTTAGCTGGTTCATGTGGATAAACATCTAAAGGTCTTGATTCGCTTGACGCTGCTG`, the fluorescence intensity was 87.2 a.u.
For `TGCGCAACAACTTGTCACAATACTTTATGTCTAGAAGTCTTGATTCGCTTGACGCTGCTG`, the fluorescence intensity was 86.1 a.u.
For `CTTTCCCGATCTTGACACGTGGGTGTAGCACATTTGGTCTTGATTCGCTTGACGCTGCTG`, the fluorescence intensity was 963 a.u.
The fluorescence intensity of `GTAGCAGAGAAAATCCACGTTTGGGCCGCGATGGCAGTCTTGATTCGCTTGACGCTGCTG` is reported as 62.5 a.u.
`AAATTACTAAGTTGATTGGTGGGTGACGCCGTATGAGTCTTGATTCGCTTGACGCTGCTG` has a fluorescence intensity of 61.4 a.u.
`ACAAGGCTAAGGGCGCACATGTGTGGGACCCGGAGGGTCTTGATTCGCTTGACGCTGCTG` has a fluorescence intensity of 98.5 a.u.
For `CTTTCCCGATCTTGACGAGTGGGTGTAGCACATTTGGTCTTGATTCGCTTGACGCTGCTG`, the fluorescence intensity was 63.5 a.u.
With `TCTATCCTATTTTAAAACGTGAATATTCCAAGATGAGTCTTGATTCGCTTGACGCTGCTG` the fluorescence intensity was 155 a.u.
With `CTAACGAAGGTTTGCAGCGTGGGTGACAAGCCAAGTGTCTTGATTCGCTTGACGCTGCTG` the fluorescence intensity was 66.4 a.u.
With `ACCGTATTTGCTCCTCACGTGTCCAGTAGGTTTCGGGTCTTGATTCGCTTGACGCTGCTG` the fluorescence intensity was 2090 a.u.
`GCTCCGTTATGTTCACTCGTGTTTCTGATACTGGATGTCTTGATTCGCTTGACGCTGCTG` gave a fluorescence intensity of 96.7 a.u.
With `GGGCTACGGCGAGCGCACGCGCATACGTTGACCGCAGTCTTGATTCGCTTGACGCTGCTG` the fluorescence intensity was 61.6 a.u.
`CTTGGCACACTCTGTTGCGTGGTGAAAATAGAACCAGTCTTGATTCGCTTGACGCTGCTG` gave a fluorescence intensity of 67.2 a.u.
`TGATAACTTCCGAGTCACGTGTGAAGGAATTCTTAAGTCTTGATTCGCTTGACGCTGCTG` has a fluorescence intensity of 11500 a.u.
`TGCTCCACCGGCCAACACGTGGAAGTCGCAATTATAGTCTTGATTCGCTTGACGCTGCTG` has a fluorescence intensity of 448 a.u.
For `CTCTGAGCACTCCATCACCTGAGTTAGGTAATACATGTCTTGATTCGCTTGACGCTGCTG`, the fluorescence intensity was 99.4 a.u.
With `TGCTCGCAATGACAGCACGTGACGGAAAGTGAGAATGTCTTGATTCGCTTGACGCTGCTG` the fluorescence intensity was 7980 a.u.
The fluorescence intensity of `TTGTTCATGAGTGAACATGTGGAAGACGAAAAACCAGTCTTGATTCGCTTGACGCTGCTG` is reported as 118 a.u.
For `CGTCCTAGTGATTGTATAGTGGGTGCCATGAGGAAGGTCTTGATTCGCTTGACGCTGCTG`, the fluorescence intensity was 90.7 a.u.
For `GTCTTGTCTCATTGGCCTGTGGGTGTCCCCACTTCAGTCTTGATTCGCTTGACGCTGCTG`, the fluorescence intensity was 67.9 a.u.
`CTTCTGTAAATTTGTCACGTCACTTGACGCGCCCCGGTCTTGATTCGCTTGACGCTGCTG` has a fluorescence intensity of 175 a.u.

Set 4 — technique: RNA Bind-n-Seq; form: RNA; matrix: in vitro; concentration: 200 nM; notes: whole 134-nt RNA, ends assumed; together with: 150 mM KCl; baseline: input library; reading: higher = stronger binding
Target: Ras GTPase-activating protein-binding protein 1, full length (G3BP1, Homo sapiens, UniProt Q13283)
UniProt Q13283, sequence (whole entry, looked up): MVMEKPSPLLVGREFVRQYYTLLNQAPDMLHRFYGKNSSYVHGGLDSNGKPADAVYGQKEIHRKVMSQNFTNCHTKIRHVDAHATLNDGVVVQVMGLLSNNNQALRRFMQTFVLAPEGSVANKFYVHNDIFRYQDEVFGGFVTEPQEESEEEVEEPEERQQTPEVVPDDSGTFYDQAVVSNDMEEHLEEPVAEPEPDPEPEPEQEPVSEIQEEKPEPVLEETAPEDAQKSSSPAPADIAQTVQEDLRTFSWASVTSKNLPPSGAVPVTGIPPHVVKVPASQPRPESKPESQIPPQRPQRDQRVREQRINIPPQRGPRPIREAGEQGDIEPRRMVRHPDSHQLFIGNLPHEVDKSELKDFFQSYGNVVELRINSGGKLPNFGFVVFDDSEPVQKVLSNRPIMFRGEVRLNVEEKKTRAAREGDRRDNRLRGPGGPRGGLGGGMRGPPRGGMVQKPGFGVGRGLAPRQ
`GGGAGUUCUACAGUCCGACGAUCUGGCCCUGGUGGCAUGCGGGGAGGAAGAGGUGGCCUCAUGGAUCGUGGUGGUCCCGGUUGAAUGUUCAGAGGUGGCCGUGGUGGAGACAGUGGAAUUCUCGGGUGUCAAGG` gave a log2 enrichment of -0.115.
The log2 enrichment of `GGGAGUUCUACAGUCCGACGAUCCUCAAGUCCUGUGCUACACAUCGUAUGUACCGAAUCGGAAGGGGAAGGAAGGGAAAGUAUUAUGUUACGCCGUUCGGAUCUGCACUUCCAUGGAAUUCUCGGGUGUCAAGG` is reported as -0.179.
The log2 enrichment of `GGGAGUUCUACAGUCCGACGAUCUUCAGUAAAAUGGCAGAAGAGAAACUGACCCACAAAAUGGAAGCUAAUAAAGAGAACCGAGAGGCACAAAUGGCUGCCAAACUGGAACGUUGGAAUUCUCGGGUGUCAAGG` is reported as -1.02.
The log2 enrichment of `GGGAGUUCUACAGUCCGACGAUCUGGGAGGUGGACUUUGUUUAUUUUUUUAGCUCAUUUCCAGGGGUGGGAAUUUUUUUUUAAUAUGUGUCAUGAAUAAAGUUGUUUUUGAAAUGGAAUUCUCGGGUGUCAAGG` is reported as -0.251.
`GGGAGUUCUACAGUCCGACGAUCUCCUCAAGUCCUGUGCUACACAUCGUAUGUACCGAAUCGGGUGGGUGGUGGAAAGUAUUAUGUUACGCCGUUCGGAUCUGCACUUCCAGCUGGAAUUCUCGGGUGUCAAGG` has a log2 enrichment of 0.0903.
The log2 enrichment of `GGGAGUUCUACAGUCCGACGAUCUUUAAUGUCUGCGGCACAAUGCCUGUCUGUGGGACCAUCCUGGGAAAACCUGCUUCUGGCUGUGAGGCAGAAACCCAAACUGAAGAGCUCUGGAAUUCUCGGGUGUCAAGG` is reported as 0.411.
`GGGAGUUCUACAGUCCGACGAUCCCUCAAGUCCUGUGCUACACAUCGUAUGUACCGAAUCGGGGUGGUGGUGGGGAAAGUAUUAUGUUACGCCGUUCGGAUCUGCACUUCCAGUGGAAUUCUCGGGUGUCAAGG` has a log2 enrichment of 0.842.
For `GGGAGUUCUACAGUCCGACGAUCUGGCCCUGGUGGCUUGCGGGGAGGAAGAGGUGGCCUCAUGGAUCGUGGUGGUCCCGGUGGAAUGUUCAGAGGUGGCCGUGGUGGAGACAGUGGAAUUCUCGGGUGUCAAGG`, the log2 enrichment was 0.299.
With `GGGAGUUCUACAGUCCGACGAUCUAACUUUAGAGGAGGAUCUGAUGGAUAUGGCAGUGGACGUGGAUUUGGGGAUGGCUAUAAUGGGUAUGGAGGAGGACCUGGAGGUAGCAAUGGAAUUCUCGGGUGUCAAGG` the log2 enrichment was 0.186.
For `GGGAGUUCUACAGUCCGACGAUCACCAUGCAGGUGGGCAUCUUUGGGAAGUGGGGCAAGGGGGGGAUAUGGAGGGGGGUAACACUUUGGGAACAGGUGGUCCCAGGUCGUUUCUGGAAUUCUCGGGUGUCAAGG`, the log2 enrichment was 1.02.

Excerpt of the above (set 2):
The E-score of `CTGCCTTC` is reported as 0.0155.
With `ACTAGTGG` the E-score was -0.134.
The E-score of `ACTGCGTA` is reported as 0.0538.
The E-score of `GTAAGACA` is reported as 0.000445.
`GCCGGCGC` has an E-score of 0.271.
The E-score of `GGCGCGCA` is reported as 0.131.
For `CATCACCC`, the E-score was -0.112.
